Measured values gathered from unrelated publications.
Compare with care: the assays were run in different laboratories. ± gives the spread as reported.
UniProt P42336, sequence (whole entry, unmodified, looked up): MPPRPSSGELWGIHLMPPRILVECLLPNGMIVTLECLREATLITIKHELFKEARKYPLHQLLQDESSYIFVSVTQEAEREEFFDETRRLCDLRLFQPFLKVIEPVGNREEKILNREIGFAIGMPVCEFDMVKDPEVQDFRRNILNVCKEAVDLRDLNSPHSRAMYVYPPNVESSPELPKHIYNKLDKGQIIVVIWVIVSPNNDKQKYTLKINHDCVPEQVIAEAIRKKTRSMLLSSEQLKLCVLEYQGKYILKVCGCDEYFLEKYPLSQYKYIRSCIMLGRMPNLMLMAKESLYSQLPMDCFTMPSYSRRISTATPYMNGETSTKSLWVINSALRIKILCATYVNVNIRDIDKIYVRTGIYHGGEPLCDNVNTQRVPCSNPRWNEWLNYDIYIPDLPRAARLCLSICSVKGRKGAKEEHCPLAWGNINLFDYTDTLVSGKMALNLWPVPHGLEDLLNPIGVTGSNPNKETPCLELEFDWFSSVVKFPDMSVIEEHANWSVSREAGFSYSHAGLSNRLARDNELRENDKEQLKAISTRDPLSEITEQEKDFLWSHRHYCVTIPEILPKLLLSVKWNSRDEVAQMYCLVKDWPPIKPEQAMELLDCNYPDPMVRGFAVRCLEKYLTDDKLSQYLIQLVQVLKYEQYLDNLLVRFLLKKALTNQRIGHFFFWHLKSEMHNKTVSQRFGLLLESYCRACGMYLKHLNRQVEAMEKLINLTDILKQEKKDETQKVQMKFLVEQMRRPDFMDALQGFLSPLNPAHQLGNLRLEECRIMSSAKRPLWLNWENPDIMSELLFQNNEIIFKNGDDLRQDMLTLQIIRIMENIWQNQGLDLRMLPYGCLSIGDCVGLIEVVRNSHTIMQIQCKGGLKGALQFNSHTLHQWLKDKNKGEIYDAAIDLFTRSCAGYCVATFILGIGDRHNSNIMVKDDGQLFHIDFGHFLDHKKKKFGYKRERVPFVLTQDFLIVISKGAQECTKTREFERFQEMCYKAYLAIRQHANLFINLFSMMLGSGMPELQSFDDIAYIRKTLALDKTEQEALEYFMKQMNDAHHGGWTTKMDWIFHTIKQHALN
UniProt Q8IYT8, sequence (whole entry, looked up): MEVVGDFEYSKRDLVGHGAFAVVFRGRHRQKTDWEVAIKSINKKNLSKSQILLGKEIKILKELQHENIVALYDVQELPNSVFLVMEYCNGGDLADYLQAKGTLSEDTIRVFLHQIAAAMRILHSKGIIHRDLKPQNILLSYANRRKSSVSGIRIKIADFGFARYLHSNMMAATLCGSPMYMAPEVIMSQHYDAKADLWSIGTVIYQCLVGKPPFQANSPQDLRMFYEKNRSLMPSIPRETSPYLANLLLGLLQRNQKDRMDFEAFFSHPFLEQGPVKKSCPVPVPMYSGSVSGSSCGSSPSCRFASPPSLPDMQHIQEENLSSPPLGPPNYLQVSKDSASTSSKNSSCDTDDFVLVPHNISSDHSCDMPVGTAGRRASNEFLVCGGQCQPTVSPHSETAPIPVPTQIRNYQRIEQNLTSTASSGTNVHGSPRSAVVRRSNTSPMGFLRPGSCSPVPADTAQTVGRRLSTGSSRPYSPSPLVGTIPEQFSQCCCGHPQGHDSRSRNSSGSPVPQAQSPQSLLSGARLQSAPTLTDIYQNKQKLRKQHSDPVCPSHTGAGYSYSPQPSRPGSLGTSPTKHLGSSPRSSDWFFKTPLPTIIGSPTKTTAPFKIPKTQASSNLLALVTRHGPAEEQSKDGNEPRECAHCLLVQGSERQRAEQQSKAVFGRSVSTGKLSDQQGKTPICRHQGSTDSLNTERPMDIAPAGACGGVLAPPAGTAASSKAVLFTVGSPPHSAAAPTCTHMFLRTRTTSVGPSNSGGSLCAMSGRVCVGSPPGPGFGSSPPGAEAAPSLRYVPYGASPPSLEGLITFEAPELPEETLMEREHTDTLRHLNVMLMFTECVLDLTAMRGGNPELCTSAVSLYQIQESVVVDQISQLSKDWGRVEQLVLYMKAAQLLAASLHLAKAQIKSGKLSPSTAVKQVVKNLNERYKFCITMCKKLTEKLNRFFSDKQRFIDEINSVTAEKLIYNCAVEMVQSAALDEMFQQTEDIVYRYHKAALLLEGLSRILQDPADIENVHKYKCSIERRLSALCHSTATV
UniProt Q8IZL9, sequence (whole entry, looked up): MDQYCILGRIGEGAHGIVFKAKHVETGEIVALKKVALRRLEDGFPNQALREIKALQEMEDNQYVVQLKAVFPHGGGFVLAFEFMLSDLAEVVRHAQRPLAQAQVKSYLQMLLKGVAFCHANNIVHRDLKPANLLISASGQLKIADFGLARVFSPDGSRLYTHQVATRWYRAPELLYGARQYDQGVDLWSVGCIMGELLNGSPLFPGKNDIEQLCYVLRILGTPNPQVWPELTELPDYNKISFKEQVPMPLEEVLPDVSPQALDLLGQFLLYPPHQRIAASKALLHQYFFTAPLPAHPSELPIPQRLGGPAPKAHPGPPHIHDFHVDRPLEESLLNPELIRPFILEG
UniProt P02554, sequence (whole entry, looked up): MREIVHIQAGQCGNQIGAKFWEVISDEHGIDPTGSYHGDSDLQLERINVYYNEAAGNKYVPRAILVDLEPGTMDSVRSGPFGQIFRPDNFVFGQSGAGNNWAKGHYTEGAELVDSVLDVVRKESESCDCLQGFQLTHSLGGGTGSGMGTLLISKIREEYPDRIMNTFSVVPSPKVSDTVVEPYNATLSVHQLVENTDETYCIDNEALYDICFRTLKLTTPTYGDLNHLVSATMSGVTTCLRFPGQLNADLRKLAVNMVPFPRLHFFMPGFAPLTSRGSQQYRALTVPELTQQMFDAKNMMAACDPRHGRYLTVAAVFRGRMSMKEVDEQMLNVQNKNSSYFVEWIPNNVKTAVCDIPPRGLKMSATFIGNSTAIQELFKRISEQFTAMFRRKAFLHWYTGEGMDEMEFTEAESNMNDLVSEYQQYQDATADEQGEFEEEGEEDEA
UniProt Q9Y4K4, sequence (whole entry, looked up): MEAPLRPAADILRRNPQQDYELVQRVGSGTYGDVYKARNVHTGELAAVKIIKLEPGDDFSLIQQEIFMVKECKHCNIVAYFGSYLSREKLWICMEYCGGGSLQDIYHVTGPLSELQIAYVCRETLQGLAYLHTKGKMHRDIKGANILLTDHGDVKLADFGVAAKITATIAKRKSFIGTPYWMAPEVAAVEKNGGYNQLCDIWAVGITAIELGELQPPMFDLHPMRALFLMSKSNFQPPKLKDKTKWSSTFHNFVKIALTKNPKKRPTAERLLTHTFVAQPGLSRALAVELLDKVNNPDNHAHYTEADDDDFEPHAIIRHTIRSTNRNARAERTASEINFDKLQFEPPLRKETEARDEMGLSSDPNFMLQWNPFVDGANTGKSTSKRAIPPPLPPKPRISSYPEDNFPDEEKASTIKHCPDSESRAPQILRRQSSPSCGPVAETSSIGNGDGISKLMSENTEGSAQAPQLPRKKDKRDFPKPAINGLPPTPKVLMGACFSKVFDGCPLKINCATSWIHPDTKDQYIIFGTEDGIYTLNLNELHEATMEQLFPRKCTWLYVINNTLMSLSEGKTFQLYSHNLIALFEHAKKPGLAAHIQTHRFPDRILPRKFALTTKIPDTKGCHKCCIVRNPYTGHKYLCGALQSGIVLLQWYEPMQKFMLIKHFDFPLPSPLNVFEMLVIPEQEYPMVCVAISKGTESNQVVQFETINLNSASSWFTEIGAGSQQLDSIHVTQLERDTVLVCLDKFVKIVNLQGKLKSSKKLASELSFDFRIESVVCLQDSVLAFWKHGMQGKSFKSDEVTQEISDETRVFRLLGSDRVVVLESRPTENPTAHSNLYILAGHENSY
UniProt P50406, sequence (whole entry, looked up): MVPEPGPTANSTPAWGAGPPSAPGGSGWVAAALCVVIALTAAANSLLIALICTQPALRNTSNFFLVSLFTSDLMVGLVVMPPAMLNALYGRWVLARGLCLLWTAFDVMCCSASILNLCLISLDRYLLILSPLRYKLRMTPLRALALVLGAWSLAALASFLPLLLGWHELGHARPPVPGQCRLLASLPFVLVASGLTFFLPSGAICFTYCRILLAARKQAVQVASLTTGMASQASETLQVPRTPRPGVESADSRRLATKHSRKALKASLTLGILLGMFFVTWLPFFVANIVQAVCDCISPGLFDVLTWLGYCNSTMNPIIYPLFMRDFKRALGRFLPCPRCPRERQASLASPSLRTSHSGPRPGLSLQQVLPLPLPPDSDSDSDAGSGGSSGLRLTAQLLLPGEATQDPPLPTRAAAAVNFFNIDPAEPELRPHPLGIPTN
UniProt P02550, sequence (whole entry, looked up): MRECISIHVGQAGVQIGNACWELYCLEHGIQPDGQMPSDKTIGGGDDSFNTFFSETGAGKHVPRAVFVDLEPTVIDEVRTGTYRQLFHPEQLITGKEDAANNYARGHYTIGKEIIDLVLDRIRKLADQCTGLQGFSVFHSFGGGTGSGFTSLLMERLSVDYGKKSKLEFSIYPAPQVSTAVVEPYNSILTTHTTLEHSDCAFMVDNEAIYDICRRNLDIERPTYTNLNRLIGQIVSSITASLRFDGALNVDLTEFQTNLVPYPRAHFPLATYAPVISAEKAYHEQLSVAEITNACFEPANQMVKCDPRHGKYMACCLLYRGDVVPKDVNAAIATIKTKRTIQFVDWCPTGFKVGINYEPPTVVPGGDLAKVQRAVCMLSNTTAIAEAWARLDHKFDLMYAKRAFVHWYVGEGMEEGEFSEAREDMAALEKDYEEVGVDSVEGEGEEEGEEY
UniProt P48146, sequence (whole entry, looked up): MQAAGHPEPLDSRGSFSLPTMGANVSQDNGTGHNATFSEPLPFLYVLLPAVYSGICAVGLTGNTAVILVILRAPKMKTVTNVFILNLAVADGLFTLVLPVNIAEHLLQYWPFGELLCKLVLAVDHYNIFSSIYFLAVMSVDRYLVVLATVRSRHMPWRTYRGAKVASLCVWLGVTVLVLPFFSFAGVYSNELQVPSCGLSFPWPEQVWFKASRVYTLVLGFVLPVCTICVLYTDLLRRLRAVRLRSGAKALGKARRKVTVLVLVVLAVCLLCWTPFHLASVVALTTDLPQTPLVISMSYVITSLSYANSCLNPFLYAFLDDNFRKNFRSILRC

The inhibition of CS(C)(=O)=Nc1ccc(-c2ccc(-c3nc4cc(O[C@@H]5CO[C@H]6[C@@H]5OC[C@H]6O)[nH]c4cc3F)cc2)cc1 is reported as -12% (FRK (Homo sapiens, UniProt P42685); enzyme activity, inhibitor; 10 µM).
With C/C(=N\OCCCN1CCCCC1)c1ccc(C(F)(F)F)cc1 the inhibition was 41.1% (Potassium voltage-gated channel subfamily KQT member 1, with KCNE1 (KCNQ1, Homo sapiens, UniProt P51787); ion current, antagonist, manual patch clamp; 10 µM).
O=C(O)CCn1c(=O)oc2cc(Cl)c(Cl)cc21 has an inhibition of -4.7% (Kynureninase (Homo sapiens, UniProt Q16719); enzyme activity, inhibitor; 100 µM).
The inhibition of O=C(O)c1ccccc1/C=N/Nc1nc(-c2ccccc2Cl)cs1 is reported as -11.9% (MAP4K5 (Homo sapiens, UniProt Q9Y4K4); enzyme activity, inhibitor; 1 µM).
For CC[C@]1(C)Oc2cc(ccc2O)[C@H](O)[C@@H](NC)C(=O)N[C@H](C(C)C)C(=O)N[C@H]1C(=O)NCC(=O)O, inhibition read “no inhibition” (Tubulin alpha-1A/beta chain (Sus scrofa, UniProt P02550+P02554); tubulin polymerization; concentration not given).
With CN[C@@H]1[C@H](O)[C@H](NC)[C@H]2O[C@]3(O)[C@H](O[C@@H]2[C@H]1O)O[C@H](C)C[C@H]3NC(=O)Cc1cc(Cl)ccn1 the inhibition was -2% (DRD3 (Homo sapiens, UniProt P35462); ligand displacement, radioligand; 10 µM).
With CCCCCCCCCCCCCCCCCC(=O)NC[C@H]1CC[C@H](C(=O)N[C@@H](CCC(=O)NCCCOCCOCCOCCCNC(=O)COCC(=O)N[C@@H](Cc2ccc(O)cc2)C(=O)NC(C)(Cc2ccccc2)C(=O)N[C@@H](CC(C)C)C(=O)N[C@@H](CCCC)C(=O)N[C@@H](CCCNC(=N)N)C(=O)N2CCC[C@H]2C(=O)N[C@@H](CCCNC(=N)NC)C(=O)N[C@@H](CC(N)=O)C(N)=O)C(=O)O)CC1 (stereo partly shown) the inhibition was 65% (NPBWR2 (Homo sapiens, UniProt P48146); antagonist, DiscoverX GPCR panel; 1 µM).
The inhibition of CCN(N=Cc1cnc2ccc(Br)cn12)S(=O)(=O)c1cc([N+](=O)[O-])ccc1C is reported as 30% (PIK3CA (Homo sapiens, UniProt P42336, I771A); enzyme activity; 60 nM).
N[C@H](C(=O)N1CCCC1)C1CCN(c2nccc3c(-c4ncc(Cl)cc4Cl)cccc23)CC1 gave an inhibition of 11% (NMDA receptor PCP site; binding, radioligand binding; 10 µM).
CC(C)[C@H]1NC(=O)C[C@H]2/C=C/CCSSC[C@@H](NC1=O)C(=O)N[C@H](Cc1cccc3ccccc13)C(=O)NCC(=O)O2 has an inhibition of 1.6% (SGK2 (Homo sapiens, UniProt Q9HBY8); enzyme activity, inhibitor; 10 µM).
The inhibition of CN(/N=C/c1ccccc1C(=O)O)c1nc(-c2ccccc2Cl)cs1 is reported as -6.6% (LYN (Homo sapiens, UniProt P07948); enzyme activity, inhibitor; 1 µM).
For C[C@H](NCc1ccc(-c2ccc(C(F)(F)F)cc2)cc1)C(N)=O, the inhibition was 0% (ULK2 (Homo sapiens, UniProt Q8IYT8); cell-free assay, competition with immobilised ligand; 1 µM).
For COc1ccc(F)cc1S(=O)(=O)Nc1cnc2c(c1)C(=O)NCCO2, the inhibition was 1% (5-HT1B receptor; radioligand binding; 10 µM).
O=C1NC2(CC2)COc2ncc(F)cc2[C@H]2COCCN2c2ccn3ncc1c3n2: “organ-to-body weight ratio” 0.257 ± 0.019% (Sprague-Dawley rat, female, spleen; oral, 20 mg/kg/day, 4 weeks dosing, end of recovery).
With CCC1CC(c2ccc(C(=O)O)cc2C)=NN1c1ccc(C#N)c(Cl)c1 (stereo not shown) the inhibition was 21% (SUV39H1 (Homo sapiens, UniProt O43463); enzyme activity, inhibitor; 10 µM).
Cc1ccc2c(n1)c(-c1cccc(S(C)(=O)=O)c1)c(C)n2C/C(F)=C/CN gave an inhibition of 3% (CXCR2 (Homo sapiens, UniProt P25025); ligand displacement, radioligand; 10 µM).
For C=CC(=O)Nc1cc(-c2nn(C3CCC(N4CCN(C(C)=O)CC4)CC3)c3ncnc(N)c23)ccc1Oc1ccccc1 (stereo not shown), the inhibition was 3.4% (SLK (Homo sapiens, UniProt Q9H2G2); inhibitor, KiNativ profiling; biochemical; 2 µM).
The inhibition of COc1ccccc1N1CCN(CCCCN2CCCc3ccccc3C2=O)CC1 is reported as 22.8% (HTR6 (Homo sapiens, UniProt P50406); radioligand binding; concentration not given, together with: [3H]LSD).
For CN(C)[C@H]1C[C@@]23CC[C@@]4(O2)C(=CC[C@]2(C)[C@@H](c5ccc6ccncc6c5)CC[C@H]24)C=C3[C@@H](O)[C@@H]1O, the inhibition was 2.7% (CDK20 (Homo sapiens, UniProt Q8IZL9); ATP probe labelling, inhibitor, KiNativ profiling; 0.1 µM).

A few entries again:
Cc1ccc2c(n1)c(-c1cccc(S(C)(=O)=O)c1)c(C)n2C/C(F)=C/CN gave an inhibition of 3% (CXCR2 (Homo sapiens, UniProt P25025); ligand displacement, radioligand; 10 µM).
